Measured values from different studies.
Every numbered part comes from another study and shows a few of its results, in no order.

Block 1
Target: Sal-like protein 4, full length isoform B (SALL4, Homo sapiens, UniProt Q9UJQ4-2, residues 1-616)
Technique: universal PBM
Molecule type: double-stranded DNA, one strand shown
Sample: in vitro
Concentration: not given
Setting: 8-mer, flanks averaged, mean of replicates
Direction: higher = stronger binding
Endpoint: E-score
Residues (chain): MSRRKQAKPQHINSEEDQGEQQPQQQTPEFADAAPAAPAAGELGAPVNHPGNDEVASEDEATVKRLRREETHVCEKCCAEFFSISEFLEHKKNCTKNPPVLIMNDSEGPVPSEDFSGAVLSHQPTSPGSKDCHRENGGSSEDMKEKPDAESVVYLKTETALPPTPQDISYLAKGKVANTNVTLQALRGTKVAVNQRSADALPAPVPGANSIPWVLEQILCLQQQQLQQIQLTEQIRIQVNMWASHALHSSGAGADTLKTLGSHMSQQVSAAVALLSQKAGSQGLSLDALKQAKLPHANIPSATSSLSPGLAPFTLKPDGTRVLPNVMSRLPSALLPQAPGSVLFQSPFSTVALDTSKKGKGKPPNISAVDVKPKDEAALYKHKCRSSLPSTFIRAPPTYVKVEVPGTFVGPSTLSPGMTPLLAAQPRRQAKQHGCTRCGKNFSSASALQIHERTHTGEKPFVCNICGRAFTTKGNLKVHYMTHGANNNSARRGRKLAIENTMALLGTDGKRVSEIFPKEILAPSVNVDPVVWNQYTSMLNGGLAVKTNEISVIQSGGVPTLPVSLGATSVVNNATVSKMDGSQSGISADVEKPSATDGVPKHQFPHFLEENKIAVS
ATGCCTCA: 0.0625
CCAATGAA: -0.118
CCCTCAAC: -0.178
AAGGGTAG: -0.0283
TGCGTCCA: -0.168

Block 2
Target: Histone acetyltransferase KAT6A, winged helix 1, GST fusion (KAT6A, Homo sapiens, UniProt Q92794, residues 1-85)
Technique: protein binding microarray
Molecule type: double-stranded DNA, one strand shown
Sample: in vitro
Concentration: not given
Setting: 8-mer, flanks averaged, mean of 2 arrays, mostly near background
Baseline: not given
Direction: higher = stronger binding
Endpoint: E-score
Construct (chain): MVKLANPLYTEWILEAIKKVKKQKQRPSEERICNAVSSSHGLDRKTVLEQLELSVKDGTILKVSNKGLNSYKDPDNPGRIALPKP
GCGGAAGC: 0.325
GCTGCAGC: 0.0999
ATAGTAAT: -0.0958
GGAGTGCC: 0.105

Block 3
Target: Interferon regulatory factor 3, full length, phosphomimetic (IRF3, Homo sapiens, UniProt Q14653, residues 1-427, S386D/S396D/S398D/S402D/T404D/S405D)
Chain of UniProt Q14653 (whole entry, unmodified, looked up): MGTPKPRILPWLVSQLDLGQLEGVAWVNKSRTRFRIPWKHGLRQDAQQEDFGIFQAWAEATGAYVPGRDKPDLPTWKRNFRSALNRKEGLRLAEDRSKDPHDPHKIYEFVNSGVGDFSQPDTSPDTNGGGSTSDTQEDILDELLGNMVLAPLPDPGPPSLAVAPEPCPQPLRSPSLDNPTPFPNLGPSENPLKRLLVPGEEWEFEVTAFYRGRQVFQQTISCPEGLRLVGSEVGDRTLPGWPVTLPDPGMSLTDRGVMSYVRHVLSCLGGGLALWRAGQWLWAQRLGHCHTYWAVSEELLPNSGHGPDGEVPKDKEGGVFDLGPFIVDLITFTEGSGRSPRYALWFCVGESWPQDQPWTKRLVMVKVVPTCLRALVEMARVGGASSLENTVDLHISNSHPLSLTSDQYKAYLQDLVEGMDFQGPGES
Technique: protein-binding microarray
Molecule type: double-stranded DNA, one strand shown
Sample: in vitro
Concentration: 2540 nM top
Setting: 60-bp whole probe
With: salmon DNA 0.4 mg/ml
Baseline: random background probes
Direction: higher = stronger binding
Endpoint: fitted relative affinity
Constant ends, left off below: GCCTAGCAC … GTCTTGATTCGCTTGACGCTGCTG
GTAGAACTGGGGTTTCGATTAGTGCTA: 1.4 z-score
TTAGATATGAGACTGGATTAGTGCTAG: -0.254 z-score
CAAGTTTCTCCTTTCCAAATGTGCTAG: 3.98 z-score
TCAACATTGTGCAATCTTACTGTGCTA: 0.129 z-score
GACGGTTTGGGTATCGGGACGTGCTAG: 0.733 z-score

Further values, each from its own experiment
PhoQ, residues 284 288 289 292 302 303 ASTSDA  fold induction (PhoP, residues 12 14 15 18 19 NQAHL (Escherichia coli, UniProt P23836); Sort-seq, refers to: YFP reporter; E. coli; PhoQ-PhoP variant library, with: 10 µM Mg2+; baseline: high Mg2+ state, higher = stronger signaling): 6.74

Excerpt of the above (block 3):
CAAGTTTCTCCTTTCCAAATGTGCTAG: 3.98 z-score
TCAACATTGTGCAATCTTACTGTGCTA: 0.129 z-score
